Experimental data from different studies.
Lines come from different studies, so protocols differ.
Cell line: SF-295

For `CCCCN1CCN(c2ccc3nc(-c4ccc5nc(-c6cc(OC)ccc6OC)[nH]c5c4)[nH]c3c2)CC1`, the growth percent was 98.6% (SRB; 10 µM, 48 h).
With `CCN(CC)c1ccc(C=NNC(=O)CSc2nc3ccccc3c(=O)n2Cc2ccc(S(N)(=O)=O)cc2)c(O)c1` the TGI was over 100 µM (NCI five-dose screen).
`O=C1NC(=NCc2cccs2)S/C1=C\c1ccc2ncccc2c1` has an IC50 of over 10 µM (MTS; NCI60 panel).
For `O=C(Nc1nnc2n3c(nc(-c4ccc(Cl)cc4)c1-2)SCC3=O)c1ccccc1`, the cell growth was 91.9% (SRB; 10 µM, NCI60 single-dose screen; relative to: untreated).
For `CCCN1CCN(c2ccc3[nH]c(-c4ccc5[nH]c(-c6ccc(C(F)(F)F)cc6)nc5c4)nc3c2)CC1`, the growth percent was -58.4% (SRB; 10 µM, 48 h).
For `O=C(Nc1nnc2n3c(Cc4ccccc4)n[nH]c3nc(-c3ccc(Cl)cc3)c1-2)c1ccccc1`, the cell growth was 102% (SRB; 10 µM, NCI60 single-dose screen; relative to: untreated).
`CCOc1ccc(-c2nc3cc(-c4nc5cc(N6CCN(C)CC6)ccc5[nH]4)ccc3[nH]2)cc1OCC` has a growth percent of 27.1% (SRB; 10 µM, 48 h).
`C#C[C@@]1(O)[C@@H](CO)O[C@@H](n2ccc3c(N)ncnc32)[C@@H]1O` gave a TGI of 5.33 µM (SRB; NCI-60 screen).
For `Cn1cncc1C1=CN(c2ncnc3[nH]cnc23)CCS1`, the GI50 was 22.4 µM (CNS cancer).
With `CCCN1CCN(c2ccc3[nH]c(-c4ccc5[nH]c(-c6ccc(OCC)c(OCC)c6)nc5c4)nc3c2)CC1` the growth percent was -63.2% (SRB; 10 µM, 48 h).
With `Cc1cc(=O)[nH]n1-c1nc(-c2ccc(Cl)cc2)c2c(NC(=O)c3ccccc3)nnc-2[nH]1` the cell growth was 94.5% (SRB; 10 µM, NCI60 single-dose screen; relative to: untreated).
The log10 TGI of `S=C([S][Au-][P+](CCCCCC[P+]([Au-][S]C(=S)n1cccn1)(c1ccccc1)c1ccccc1)(c1ccccc1)c1ccccc1)n1cccn1` is reported as over -4 (cell growth, NCI-60 screen; CNS cancer).
`Cc1cc(C)n(-c2nc(-c3ccc(Cl)cc3)c3c(NC(=O)c4ccccc4)nnc-3[nH]2)n1` has a cell growth of 77.2% (SRB; 10 µM, NCI60 single-dose screen; relative to: untreated).
`C#C[C@@]1(O)[C@@H](CO)O[C@@H](n2cc(F)c3c(N)ncnc32)[C@@H]1O` has a TGI of 2.33 µM (SRB; NCI-60 screen).

Some of these lines once more:
For `O=C(Nc1nnc2n3c(Cc4ccccc4)n[nH]c3nc(-c3ccc(Cl)cc3)c1-2)c1ccccc1`, the cell growth was 102% (SRB; 10 µM, NCI60 single-dose screen; relative to: untreated).
